Literature values that unrelated publications cite.
Numbered parts are unrelated; values within a part may stem from several laboratories. ± marks the error that the study gave.

Series 1
SMILES: CO/N=C(\C(=O)N[C@@H]1C(=O)N2C(C(=O)O)=C(COC(C)=O)CS[C@H]12)c1csc(N)n1
Quantity: MIC
Acinetobacter baumannii; clinical isolate RKI-No_12/16: > 16 mg/L
Pseudomonas aeruginosa; clinical isolate RKI-No_321/16: > 16 mg/L
Enterobacter cloacae; clinical isolate RKI-No_34/16: > 16 mg/L
Pseudomonas aeruginosa; clinical isolate RKI-No_81/10: > 16 mg/L
Escherichia coli; clinical isolate RKI-No_75/15: > 16 mg/L

Mixed results
CCC(CC)COC(=O)[C@H](C)N[P@](=O)(OC[C@H]1O[C@@](C#N)(c2ccc3c(N)ncnn23)[C@H](O)[C@@H]1O)Oc1ccccc1
EC50 (SARS-CoV-2; viral replication; Calu-3): 200 ± 70 nM

O=[N+]([O-])c1ccc(O[C@H]2O[C@H](CO)[C@@H](O)[C@H](O)[C@@H]2O)cc1
Km (Beta-mannosidase (Bacteroides thetaiotaomicron, UniProt Q8AAK6); substrate): 190 µM

Cc1cc(-c2nccc3c2ccn3CC(=O)Nc2ccc(-c3cnccn3)cn2)ccn1
micronucleus test result (rat, bone marrow; in vivo genotoxicity): negative

Fc1ccccc1Cc1nc(-c2nc(C(F)(F)F)n[nH]2)cn2ccnc12
plasma protein binding (equilibrium dialysis; monkey plasma; 1 and 10 µM): 98.7%

CC1COc2ccccc2N1C(=O)C(Cl)Cl (stereo not shown)
depletion (cytochrome P450; female rat liver microsomes; 30 min, added: NADPH): 48 ± 1%

Excerpt of the above (mixed results):
Cc1cc(-c2nccc3c2ccn3CC(=O)Nc2ccc(-c3cnccn3)cn2)ccn1
micronucleus test result (rat, bone marrow; in vivo genotoxicity): negative
